Experimental data pooled from the literature.
Each numbered part is a random draw from the data of one study; scales do not carry over between parts. Substitutions count along the parent as printed.

Series 1 — method: protein binding microarray; molecule type: double-stranded DNA, one strand shown; medium: in vitro; tested at: not given; baseline: not given; reading: higher = stronger binding
Target: Histone acetyltransferase KAT6A, winged helix 2, GST fusion (KAT6A, Homo sapiens, UniProt Q92794, residues 85-181)
Notes: 8-mer, flanks averaged, mean of 2 arrays, mostly near background
Target sequence (chain): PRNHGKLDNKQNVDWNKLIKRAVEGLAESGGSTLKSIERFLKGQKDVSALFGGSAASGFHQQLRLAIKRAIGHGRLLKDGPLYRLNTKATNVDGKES
Strand	E-score
CGTCCAGA	0.0325
CATTAGGC	-0.0277
AAACTTAT	0.0609
ACCCTAGG	-0.099
TAGAAATA	0.0244
AACGCAGA	0.126
CCTAGTAG	-0.147
AAGACGAG	-0.0514
CTACGTGA	-0.198
CGCTGCAG	-0.023
TCCATAAA	-0.1
ATTAAGGG	-0.039
AGACATAG	-0.0763
ACCTAGCT	-0.088
CCCTGCAG	0.0644
AGTCTTTC	-0.138
TACTCCTA	-0.103
GGAGTTAA	0.00088
GGACCGCA	0.226
AATGGCCC	0.0149

Series 2 — method: RNA Bind-n-Seq; molecule type: RNA; medium: in vitro; tested at: 1 µM; notes: whole 134-nt RNA, ends assumed; added: 150 mM KCl; baseline: input library; reading: higher = stronger binding
Target: Ras GTPase-activating protein-binding protein 1, C-terminal RGG region (G3BP1, Homo sapiens, UniProt Q13283)
Chain of UniProt Q13283 (whole entry, looked up): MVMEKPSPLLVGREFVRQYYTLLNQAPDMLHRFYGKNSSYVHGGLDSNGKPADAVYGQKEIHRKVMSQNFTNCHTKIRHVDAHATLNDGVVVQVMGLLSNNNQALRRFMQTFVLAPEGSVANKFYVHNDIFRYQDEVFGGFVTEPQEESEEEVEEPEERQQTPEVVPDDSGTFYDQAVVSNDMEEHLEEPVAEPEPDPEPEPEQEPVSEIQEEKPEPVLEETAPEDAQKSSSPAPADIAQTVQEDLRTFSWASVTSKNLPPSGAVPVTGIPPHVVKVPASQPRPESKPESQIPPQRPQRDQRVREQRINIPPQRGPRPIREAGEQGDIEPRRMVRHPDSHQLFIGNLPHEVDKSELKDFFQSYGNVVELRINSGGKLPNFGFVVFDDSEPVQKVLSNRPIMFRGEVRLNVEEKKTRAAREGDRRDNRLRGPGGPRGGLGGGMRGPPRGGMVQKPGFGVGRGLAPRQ
Shared flanks, not repeated: GGGAGUUCUACAGUCCGACGAUC … UGGAAUUCUCGGGUGUCAAGG
Strand	log2 enrichment
GAAAGAAGUAAAAACAAAUGGAAAUGCUUCGGAUAGUGGCAGGGGUGGGGGUUGCUAAGGAAAGGGUGGGAUGGGAGUGGGUAAAGAGUU	1.56
UCCUGUGCUACACAUCGUAUGUACCGAAUCAAAUUUUUUUAAACCCCCCCAAAUUUAAAAAAGUAUUAUGUUACGCCGUUCGGAUCUGCA	-0.294
UCAAGUCCUGUGCUACACAUCGUAUGUACCGAAUCGUGUGUGUGUGUGUGUGUGAAAGUAUUAUGUUACGCCGUUCGGAUCUGCACUUCC	0.909
CAAGUCCUGUGCUACACAUCGUAUGUACCGAAUCAAAUUUAAACCCAAACCCAAAAAAGUAUUAUGUUACGCCGUUCGGAUCUGCACUUC	-0.68
CACAGACAAAAAGCACCCACACAGACACAGAGGGAAGGGGUUGGGAUGGGGACAGGGUGCACAGCAGGGCGGGGUAGGACCCCAGCCCCU	-0.28
UGGCCCUGGUGGCAUGCGGGGAGGAAGAGGUGGCCUCAUGGAUCGUGGUGGUCCCUGUGGAAUGUUCAGAGGUGGCCGUGGUGGAGACAG	1.85
CCUGUGCUACACAUCGUAUGUACCGAAUCGGGGAAAGGGGUUUUUUUGGGGUUUUUGGGGAAAGUAUUAUGUUACGCCGUUCGGAUCUGC	0.337
AGUCCUGUGCUACACAUCGUAUGUACCGAAUCGGGUUUUUGGGUGGGUUUUUUUGGGAAAGUAUUAUGUUACGCCGUUCGGAUCUGCACU	0.718
GCAGGAAGUAAAAACAACUGGAAAUGCUUCGGAUAGUGGCAGGGGUGGGGGUUGCUAAGGAAAGGGUGGGAUGGGAGUGGGUAAAGAGUU	1.77
UGGCUUCGAAGUACAGUCUUUGCAGGAUGCAGGAAAUCAGCUUGGUAUGGAGGAUACAUCUCUGAGCUCUGGAAUGCUCACCCAGAACAC	-0.957
AGUCCUGUGCUACACAUCGUAUGUACCGAAUCGGGUGGGUUUUUGGGAAAAAAAGGGAAAGUAUUAUGUUACGCCGUUCGGAUCUGCACU	-0.257
UCAAGUCCUGUGCUACACAUCGUAUGUACCGAAUCGGGUUUGGUUUGGUUUGGGGAAAGUAUUAUGUUACGCCGUUCGGAUCUGCACUUC	-1.26
AAGUCCUGUGCUACACAUCGUAUGUACCGAAUCAAACCCAAAUUUAAACCCCCAAAAAAGUAUUAUGUUACGCCGUUCGGAUCUGCACUU	-1.04
UAACCUUAGAGGAGGAUCUGAUGGAUAUGGCAGUGGACGUGGAUUUGGGGAUGGCUAUAAUGGGUAUGGAGGAGGACCUGGAGGUGGCAA	-0.743

Series 3 — method: RNA Bind-n-Seq; molecule type: RNA; medium: in vitro; tested at: 365 nM; baseline: no-protein control; reading: higher = stronger binding
Target: RNA binding protein fox-1 homolog 2, RRM domain, GST-SBP tag (RBFOX2, Homo sapiens, UniProt O43251-10, residues 100-194)
Notes: natural RNA segment, single round, ends assumed
Shared flanks, not repeated: GGGAGUUCUACAGUCCGACGAUC … UGGAAUUCUCGGGUGCCAA
Target sequence (chain): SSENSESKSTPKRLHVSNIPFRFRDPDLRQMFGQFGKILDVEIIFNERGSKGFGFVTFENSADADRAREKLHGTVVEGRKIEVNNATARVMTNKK
Strand	RBNS enrichment (R)
CCUAUAUGGUCCUCGUGUUGGCUUAUCCCAGGAGCCUACUUCCCAGAGUCCUGCCUAGGGCACCCGGGGAAGCCCGUCCCCACUUCCCCACUCUGUAAGUGUUUUGGAGU	0.502
GCUUAAUUUAUUGUUUAACACCCCCUAACUGCCGAAACCAAAGUGAUACGGAGUCGUCUUGUCUGCAUUUUGGCCUCAGCAUCAUUAACUUCAAAGCUUUAUUCUGUCUG	0.648
CAUGUGUACAUUCUGCCUAGAGUGUAGCCUAAAGGGCAGGGCCCACGUGUAUAGUAUCUGUAUAUAAGUUGCUGUGUGUCUGUCCUGAUUUCUACAACUGGAGUUUUUUU	0.427
CCCGUAAGUGCCACUAGGAAGGAAACCUCAAAUCCACCUACACUGAACCCAGGAACAUCUACAGCAGUCCCCAGAAAAACAUUCUUUCUGAGGAGGUUUAGGUGAAGUUG	0.297
GGCUUGCAGCUGGUGAUGGUCAAGAACUGACUACAAAACAGGAAUGGAUAGACUCUAUUUCCUUCCAUAUCUGUUCCUCUGUUCCUUUUCCCACUUUCUGGGUGGCUUUU	0.239
UGAGUAGGUAUCUCAGCAGCACACCCGAACAGUAAAGGUGAUCAAUAACGAAACUGUAGUUUUCAGAUUGAAGAAUGAACCUGGAUCACCAAACUAGAUACCGAAAGGGC	1.24
GUACCCAGGCUUUAGCAUUAUUGGAUGUCAAUAGCAUUGUUUUUGUCAUGUAGCUGUUUUAAGAAAUCUGGCCCAGGGUGUUUGCAGCUGUGAGAAGUCACUCACACUGG	0.535
UUCAUCUUUAGCACAAGGAAGGUAUUUAAGUGAGCCAGAGACAAACAGAGCCAUUUUAGUCUUCAUAGUUAUCUGCUAAGAGAGAUAAUGAGCUGACUGUCUAUUUUAAA	0.346
CUUAGAGGAUCUCCGAGAGGUCCCCGCAGCUCUAGGGAGAUCUGAUUUUGUGUUUUUUGUUUAAGUACUUCACACAGAAGCCUAGGUAGAUUUAAAAUGGGGUGCUCAGG	0.505
GAAUGGUACUUAGGGAUGGAAAACGGGCCUGGCUAGAGCUUCGGGUGUGUGUGUCUGUCUGUGUGUAUGCAUACAUAUGUGUGUAUAUAUGGUUUUGUCAGGUGUGUAAA	0.762
UAUAUAUAAAAAGGCAGCCAUUGCUAUUGCAAUUCAUUUAAUAAAGCUUUAGUUUAAACAAAAGUAUUGUAUACAGGAACUAUGUAUAGUGCAGGGGUUCUUUUCAGUUA	0.456
UAGCUCAGCUUUCAGAGCGCUAACUCUAAAGGAAUUCACCUGAGCCUUGAGAGAGAACCUGGGCUAGGGCUAGAGUUAGGGCUACAUACUCCAAGGUGACCUCACAUUUG	0.408

Series 4 — method: aptamer microarray, sandwich; molecule type: DNA with 2'F-ANA; medium: in vitro; tested at: 200 nM; added: Cy3 exosite-II aptamer, 400 nM; reading: higher = stronger binding; strand: GGTTGGTGTGGTTGG
Target: Prothrombin, mature alpha-thrombin (F2, Homo sapiens, UniProt P00734)
Notes: whole 15-mer aptamer, many near background
Modification	mean fluorescence intensity
2'F-ANA at 5 6 7 8 10 12 13 14	43.5 a.u.
2'F-ANA at 1 2 3 4 5 7 9 10 11 12 13 15	51.7 a.u.
2'F-ANA at 1 3 4 6 7 8 9 12	401 a.u.
2'F-ANA at 2 3 6 7 8 9 14 15	364 a.u.
2'F-ANA at 1 6 8 12 15	404 a.u.
2'F-ANA at 1 5 6 7 10 12	69.1 a.u.
2'F-ANA at 1 5 7 10 11 13 15	47.4 a.u.
2'F-ANA at 1 2 3 4 6 7 8 12 13	271 a.u.
2'F-ANA at 2 3 5 10 12 14 15	49.7 a.u.
2'F-ANA at 3 5 6 7 8 10 11 12 13 14 15	57.5 a.u.
2'F-ANA at 4 5 7 8 12 14	52.8 a.u.
2'F-ANA at 1 2 3 5 9 11 13 14 15	64.2 a.u.
2'F-ANA at 1 2 11 13 14	50.5 a.u.
2'F-ANA at 3 4 5 7 9 10 14 15	48.5 a.u.
2'F-ANA at 1 2 3 4 5 6 10 12 13 15	54 a.u.
2'F-ANA at 1 2 4 6 9 10 12	58.3 a.u.
2'F-ANA at 1 2 4 7 8 10 11 12 13 14	47.2 a.u.
2'F-ANA at 3 10 11	646 a.u.
2'F-ANA at 1 6 7 11 13 14 15	56.9 a.u.
2'F-ANA at 3 4 5 6 7 8 11 12	200 a.u.

Series 5 — method: DHFR PCA, deep sequencing; medium: yeast; added: (+)-ABA 0 µM; baseline: wild-type fitted maximum; reading: higher = stronger binding
Target: ABI1, truncated, D143A, DHFR fusion (Arabidopsis thaliana)
Notes: methotrexate growth selection, single substitutions
Starting sequence: PYL1, truncated, DHFR fusion (Arabidopsis thaliana); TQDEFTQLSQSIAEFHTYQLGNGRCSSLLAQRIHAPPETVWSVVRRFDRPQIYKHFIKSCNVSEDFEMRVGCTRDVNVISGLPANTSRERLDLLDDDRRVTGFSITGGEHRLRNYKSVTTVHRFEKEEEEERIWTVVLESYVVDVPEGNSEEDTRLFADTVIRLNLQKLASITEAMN; partner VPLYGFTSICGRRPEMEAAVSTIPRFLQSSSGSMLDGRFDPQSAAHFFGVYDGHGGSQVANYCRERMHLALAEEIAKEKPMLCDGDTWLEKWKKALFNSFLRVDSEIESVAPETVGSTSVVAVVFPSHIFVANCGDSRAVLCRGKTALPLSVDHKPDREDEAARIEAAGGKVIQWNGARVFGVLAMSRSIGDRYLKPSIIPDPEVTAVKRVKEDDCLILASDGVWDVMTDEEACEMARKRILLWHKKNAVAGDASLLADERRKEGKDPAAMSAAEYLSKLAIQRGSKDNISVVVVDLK
Change	relative binding score [%]
E4C	12.1
D96Q	-7.87
A84R	8.04
Q10I	-1.23
G148L	-5.15
L94T	-5.7
R74H	5.46
Q51H	17.2
V62D	-6.89
S171C	8.2
L29G	-0.124
T101F	60.5
H110I	-5.87
T106I	66.4
F5D	-2.5
D65A	6.17

Excerpt of the above (series 3):
Strand	RBNS enrichment (R)
CCUAUAUGGUCCUCGUGUUGGCUUAUCCCAGGAGCCUACUUCCCAGAGUCCUGCCUAGGGCACCCGGGGAAGCCCGUCCCCACUUCCCCACUCUGUAAGUGUUUUGGAGU	0.502
GCUUAAUUUAUUGUUUAACACCCCCUAACUGCCGAAACCAAAGUGAUACGGAGUCGUCUUGUCUGCAUUUUGGCCUCAGCAUCAUUAACUUCAAAGCUUUAUUCUGUCUG	0.648
CAUGUGUACAUUCUGCCUAGAGUGUAGCCUAAAGGGCAGGGCCCACGUGUAUAGUAUCUGUAUAUAAGUUGCUGUGUGUCUGUCCUGAUUUCUACAACUGGAGUUUUUUU	0.427
CCCGUAAGUGCCACUAGGAAGGAAACCUCAAAUCCACCUACACUGAACCCAGGAACAUCUACAGCAGUCCCCAGAAAAACAUUCUUUCUGAGGAGGUUUAGGUGAAGUUG	0.297
GGCUUGCAGCUGGUGAUGGUCAAGAACUGACUACAAAACAGGAAUGGAUAGACUCUAUUUCCUUCCAUAUCUGUUCCUCUGUUCCUUUUCCCACUUUCUGGGUGGCUUUU	0.239
UGAGUAGGUAUCUCAGCAGCACACCCGAACAGUAAAGGUGAUCAAUAACGAAACUGUAGUUUUCAGAUUGAAGAAUGAACCUGGAUCACCAAACUAGAUACCGAAAGGGC	1.24
GUACCCAGGCUUUAGCAUUAUUGGAUGUCAAUAGCAUUGUUUUUGUCAUGUAGCUGUUUUAAGAAAUCUGGCCCAGGGUGUUUGCAGCUGUGAGAAGUCACUCACACUGG	0.535
UUCAUCUUUAGCACAAGGAAGGUAUUUAAGUGAGCCAGAGACAAACAGAGCCAUUUUAGUCUUCAUAGUUAUCUGCUAAGAGAGAUAAUGAGCUGACUGUCUAUUUUAAA	0.346
CUUAGAGGAUCUCCGAGAGGUCCCCGCAGCUCUAGGGAGAUCUGAUUUUGUGUUUUUUGUUUAAGUACUUCACACAGAAGCCUAGGUAGAUUUAAAAUGGGGUGCUCAGG	0.505
GAAUGGUACUUAGGGAUGGAAAACGGGCCUGGCUAGAGCUUCGGGUGUGUGUGUCUGUCUGUGUGUAUGCAUACAUAUGUGUGUAUAUAUGGUUUUGUCAGGUGUGUAAA	0.762
